Measured values pooled from the literature.
Numbered parts are unrelated; each lists some results of a single study.

Sample 1 — method: aptamer microarray, sandwich; form: DNA with 2'F-ANA; sample: in vitro; tested at: 200 nM; with: Cy3 exosite-II aptamer, 400 nM; direction: higher = stronger binding; sequence: GGTTGGTGTGGTTGG
Target: Prothrombin, mature alpha-thrombin (F2, Homo sapiens, UniProt P00734)
Setting: whole 15-mer aptamer, many near background
Modification | mean fluorescence intensity
2'F-ANA at 4 5 7 10 11 15 | 52.9 a.u.
2'F-ANA at 1 2 4 5 8 9 10 13 15 | 49.3 a.u.
2'F-ANA at 1 3 5 8 10 12 13 15 | 59.5 a.u.
2'F-ANA at 4 5 8 9 13 14 | 45.4 a.u.
2'F-ANA at 3 4 5 7 8 | 115 a.u.
2'F-ANA at 6 7 12 14 | 250 a.u.
2'F-ANA at 1 2 3 4 6 9 10 11 13 14 | 127 a.u.
2'F-ANA at 1 3 7 8 13 14 | 119 a.u.
2'F-ANA at 1 2 4 5 7 8 10 11 12 13 14 15 | 50.3 a.u.
2'F-ANA at 1 2 3 8 11 12 | 433 a.u.
2'F-ANA at 3 4 5 6 7 15 | 90.2 a.u.
2'F-ANA at 2 3 4 5 6 7 11 12 14 | 124 a.u.
2'F-ANA at 1 2 6 7 8 9 11 13 15 | 147 a.u.
2'F-ANA at 3 4 7 8 9 14 15 | 339 a.u.
2'F-ANA at 4 5 7 9 11 12 13 14 15 | 47.2 a.u.
2'F-ANA at 1 2 3 12 14 | 96.3 a.u.
2'F-ANA at 2 6 8 11 13 14 15 | 109 a.u.

Sample 2 — method: RNA Bind-n-Seq; form: RNA; sample: in vitro; tested at: 365 nM; relative to: no-protein control; direction: higher = stronger binding
Target: RNA binding protein fox-1 homolog 2, RRM domain, GST-SBP tag (RBFOX2, Homo sapiens, UniProt O43251-10, residues 100-194)
Setting: natural RNA segment, single round, ends assumed
All sequences stand within: GGGAGUUCUACAGUCCGACGAUC … UGGAAUUCUCGGGUGCCAA
Target sequence (chain): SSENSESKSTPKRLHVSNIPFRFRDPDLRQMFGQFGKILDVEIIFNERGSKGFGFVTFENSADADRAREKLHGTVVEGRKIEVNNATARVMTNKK
Sequence | RBNS enrichment (R)
GGAUUUUUGUUAAUGUAUUUAUUUCAUUCCAGUUUGAUUUAUUUUAAUUGUUGAUACUUAAGUUGUCAGUAGACAUGCUUUAUUUAUGAUAUAUUUCAGCUUAAAGUUAU | 1.15
CUGUUCCGCGUGGUUCCCGCCAAACCUCCCUCGGUCGCCGUGUUCUCCGCAAGCCUCCUGCAGCGCCCGCCUGCCAAUGUGAGGCUGGCACCAGGCUGCAGCCUCCCCAA | 0.342
GAAGAGCUUUGCUGGGCCCUGGCUUCCCUGCCCUCGCCUUCACCUCUGUCAGCAGGUGGCCUUGCCUGGGGAGCCCCAUGUGUGGCCCACCCCACCAGGCCAUCCCCAUA | 0.221
AUACUUAAAAGUAUCUCCUCCUUACUUGAAAGAAUGAUGUUCUACAUGCUAAUAUUUGUGAGACAUGAAAACUAUUUCAAAGCCAACUUUGUUGUCUUGUUGUAUAAGAA | 0.373
UUUAGUGGUGAAUACCAAGAUUCAGUGCAUCCUUUAAAAGAGCGUUCUUGUCCCUGGCGCUGGCUAAAAAUAGCUCGUUUCCAGAUGCUUUUGUAGAUGACUGAAGUAUU | 0.579
AUGCCAUGCUGGGGUGACAUUUUAGAGACUGACCGAAAUAGGUGAGACCCUGCCUGUAUUCAGAAAUGUGGAACAGAGAAAUGGUGGGCCAGGAGUGAAGGCAGAUUUAG | 1.05
GAAGCGAUGUGUGUGCGGUUCAGGAAACUCCUCCAAGAGGAGGAGGAGUCCAAACAGGGAUGCCAGAGGAAGCUUUCCGUUUUCCUAGCCAACUUGUGUUCUGGGUUUGA | 0.474
UGUCCUGCCAACGGUAACAAUCAAGUAUGUCAUCAGACAUUGCCCAAUGUCCCCAGGGGGCAACACCCCUCUCUUGGACUUCAGGGUCAAGAGAAUCUCUGCUGGCUACC | 0.173
CCUUCUCCCGGUCUGCUGAUCACUCUUUCAUGCCUGUGUAUCCAGGGUGCUCUGUUUCCCCACCGUUCCCAGGUGUACGAGGCAGAGGGCCGGGACAGCUUUCCUCUCAG | 0.271
CCACCGUUAGGAUUCAGGCAGCAGUGUCUGUACCUCGGGUGGGAGGGAUGGGGCCAUCUCCUUCACCGUGGCUACCAUUGUCACUCGUAGGGGAUGUGGAGUGAGAACAG | 0.841
CCCCCAUGUACCCCCACCUGUGUUCCGUUUGACCAGCACAGAAAUAUUAAAGUCCUCUAUUUACCGGCCCUGUGUGUGUCACCAAGGUGAGAAAGGAGAGGGCCCUUGGA | 0.664
CGACUGCUGACCCCCUGGGCCAGGUGAGGUUGGGGCCUGUGGGCCGCCAGUCCAUACGGUGCUGUCACUGCCCAUCUUCGGUGACACCCUGGGGUGAGGUGCUCAGCACC | 0.192

Sample 3 — method: protein binding microarray; form: double-stranded DNA, one strand shown; sample: in vitro; tested at: not given; relative to: not given; direction: higher = stronger binding
Target: Histone acetyltransferase KAT6A, winged helix 1, GST fusion (KAT6A, Homo sapiens, UniProt Q92794, residues 1-85)
Setting: 8-mer, flanks averaged, mean of 2 arrays, mostly near background
Construct (chain): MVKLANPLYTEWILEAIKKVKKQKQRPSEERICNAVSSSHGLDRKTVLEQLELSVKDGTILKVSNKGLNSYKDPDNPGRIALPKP
Sequence | E-score
AGCCCATC | -0.122
AGACGAAT | -0.136
ACCGTTGG | -0.0772
CTGAATCA | -0.192
CTATTGTA | 0.0537
ATGAAAGC | -0.127
ATCAAATA | -0.188
ACGGGACT | 0.32
AGACCTTC | -0.0676
GTGCGCGA | 0.364
CGAGTGTA | 0.0371
ACAAGAAG | -0.0594
ATGCGCTC | 0.239
AGTGATGA | -0.302
AAAACGGT | 0.0672
GGCTCGCA | 0.0443
AGCAGCAG | -0.223

Sample 4 — method: RNA Bind-n-Seq; form: RNA; sample: in vitro; tested at: not given; relative to: input RNA pool; direction: higher = stronger binding
Target: RING finger protein unkempt homolog, zinc fingers 1-6, GST-SBP tag (UNK, Homo sapiens, UniProt Q9C0B0, residues 30-357)
Setting: RNA with constant flanks, human-mouse chimeric sites, ends assumed
All sequences stand within: GGGAGUUCUACAGUCCGACGAUC … CAACAGAGGAUUGAGCAUCA
Target sequence (chain): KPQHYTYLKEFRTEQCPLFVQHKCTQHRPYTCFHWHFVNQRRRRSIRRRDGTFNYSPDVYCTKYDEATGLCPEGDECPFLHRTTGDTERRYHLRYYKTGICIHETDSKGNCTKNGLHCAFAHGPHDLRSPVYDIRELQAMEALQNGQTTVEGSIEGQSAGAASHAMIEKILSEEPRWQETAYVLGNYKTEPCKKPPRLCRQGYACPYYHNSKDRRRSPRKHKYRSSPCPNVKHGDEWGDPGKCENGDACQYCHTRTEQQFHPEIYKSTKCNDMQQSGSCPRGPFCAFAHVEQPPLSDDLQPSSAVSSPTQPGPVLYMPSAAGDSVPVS
Sequence | bound/input enrichment [ratio]
GAAAGAGAACUAAAGCAAACUGAUUGAAAGAGGAUUGGCAAAGAGAAUUUCAUAGAGAAACUAGGAUUUAUUAGCAAACAUGAGUUAUAUUCCAGAGCGUCUCAGAAACCCCAGCCAAAC | 3.3
AGGAGGAGGUUAAAGGGUGAGAGUGGGGUGGAAGACUGUGUCAUGGCUCUGGAGACAUUGUUUAGUGUCCUGCUUUCUCUGUGCAGACUGAUGGCCCCCUACACACCCUUUCUGACUGAG | 0.0962
UCAACAGACAACAUCAAAUACCAGCCUAAAGGGGGGCAGGUACAAAUUGUUACCAAGAAGAUAGACUUAAGCCAUGUGACAUCCAAAUGUGGCUCUCUGAAGAACAUCCGCCACAGGCCA | 0.399
GCAUAUGGUUAUCGAGGAAAGGACUGUAGAGCGAAUGUAUACCUGCUUCCCACAGGGGAGAUAGUUUAUUUUAUCGCCUCAGUGGUAGUACUAUUUAAUUAUGAGGAGAGGACUCAGCGA | 2.98
AAAGCCCAAGUAUUUUGAAAAAACUCGAACAGAUUUAACAAGGGUAGCCAGCUUGGAGUCUAGCAAUUUGCCAAUGUGUUUACCAAUCUGGGGGCUUGUUUUUCUUUUCUUCUUUCAAAU | 0.354
GCUCCUCCCCGCUCUGCAGCCUGGGGACACUGGGCUGGGACCAGAAUCUUAUUUUUUUUUAAAACUCUCAGUGUAACUGUAUCCCGUGACAUUUCAUUUUUUUUAAAUAGUGUAUUUUUU | 13.1
AACGUGGAGUUGAGUUCGCUGGCCCGGCUUCCCAGCUUGAAUAAACUCCGGAAGUUGGAACUUAGUGAUAAUAUAAUUUCUGGAGGCUUGGAAGUCCUGGCAGAGAAAUGUCCAAAUCUU | 2.05
AAAUCGUGUGUGUCCAAUAUUGAAAGUACUUUAUCUGCACUCCAAUAUGUAAGCAGUAUAGUAGUUUCUUUAGAGAAUAGGUCAGCCAUUGUAAAGUACAAUGCAAGCUUAGUCACUCCA | 2.75
AAAGUGGACUAUGGCGAGUACAUGGAUAAAAACAAUGUGAGGCGACAAGCAACAACAAUCAUAGCUGAUAACAUUAUAUUUCUGAGUGACCAGACAAAAGAGAAGGAAUAGAACGGAUGA | 1.72
GAAACUAUUCCUAAAGAGGAGAAAGCUGAAAAGGAAGCUCGGAGACCGUCUCUCGAGAAACAUAGAAAAGAAAAGCCUUUUAAAACCGGGAGAGGCAGAAUUUCCACUCCUGAAAGAAAA | 0.463
AACUUCGUGCAUCGGUUUCCUUUUGUAGCUGUUUCAAUUGGCUUCCUUGUGAAUAAAGAGAUGGAGUUUGGAAUUGUGUACAGCUGUGUGGAAGAUAAGAUGUACACUGCCAGAAAAGGG | 0.287

Sample 5 — method: RNA Bind-n-Seq; form: RNA; sample: in vitro; tested at: 200 nM; setting: whole 134-nt RNA, ends assumed; with: 150 mM KCl; relative to: input library; direction: higher = stronger binding
Target: Ras GTPase-activating protein-binding protein 1, full length (G3BP1, Homo sapiens, UniProt Q13283)
Sequence of UniProt Q13283 (whole entry, looked up): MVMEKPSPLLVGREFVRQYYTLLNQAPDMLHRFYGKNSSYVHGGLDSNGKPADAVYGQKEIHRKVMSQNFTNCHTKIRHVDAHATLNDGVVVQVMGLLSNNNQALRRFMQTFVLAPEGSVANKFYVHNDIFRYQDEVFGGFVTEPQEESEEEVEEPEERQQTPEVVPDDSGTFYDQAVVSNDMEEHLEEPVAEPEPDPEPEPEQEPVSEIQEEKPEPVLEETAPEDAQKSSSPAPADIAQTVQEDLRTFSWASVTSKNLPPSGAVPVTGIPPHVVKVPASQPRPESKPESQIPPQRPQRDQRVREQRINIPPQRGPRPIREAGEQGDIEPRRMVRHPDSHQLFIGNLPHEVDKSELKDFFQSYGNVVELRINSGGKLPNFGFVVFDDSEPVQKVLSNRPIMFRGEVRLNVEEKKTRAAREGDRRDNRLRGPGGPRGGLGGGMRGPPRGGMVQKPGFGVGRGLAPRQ
All sequences stand within: GGGAGUUCUACAGUCCGACGAUC … UGGAAUUCUCGGGUGUCAAGG
Sequence | log2 enrichment
UAACUUUAGAGGAGGUUCUGAUGGAUAUGGCAGUGGACGUGGAUUUGGGGAUGGCUAUAAUGGGUAUGGAGGAGGACCUGGAGGUGGCAA | 0.435
GUCCUGUGCUACACAUCGUAUGUACCGAAUCGGGGCCCCCGGCCCCCGGGCCCCCGGGAAAGUAUUAUGUUACGCCGUUCGGAUCUGCAC | -0.748
UGGGAGGUGGAUUUUGUUUAUUUUUUUAGCUCAUGUCCAGGGGUGGGAAUUUUUUUUUAAUAUGUGUCAUGAAUAAAGUUGUUUUUGAAA | -0.0247
GCAGGAAGUAAAAACAAAUGGAAAUGCUUCGGAUAGUCGCAGGGGUGGGGGUUGCUAAGGAAAGGGUGGGAUGGGAGUGGGUAAAGAGUU | 0.921
UACUCUUUGAUUUAUCAAAUGUGUUCAGUUGGAGAAUCGUCCUCAGGAAAGGCUUCAAGGAGCCUUGCACAGCAUAUUCCUGGCCCUGGU | -1.12
UGGGAGGUGGAUUUUGUUUAUUUUUUUAGAUCAUUUCCAGGGGUGGGAAUUUUUUUUUAAUAUGUGUCAUGAAUAAAGUUGUUUUUGAAA | 0.0819
UCCUGUGCUACACAUCGUAUGUACCGAAUCGGAAAAAAAGGGAAAAAAAGGAAAAAAAGGAAAGUAUUAUGUUACGCCGUUCGGAUCUGC | -0.436
UCAAGUCCUGUGCUACACAUCGUAUGUACCGAAUCGGGGAGGGGUGGGGAGGGGAAAGUAUUAUGUUACGCCGUUCGGAUCUGCACUUCC | 1.44
AAGUCCUGUGCUACACAUCGUAUGUACCGAAUCGGGGCCCGGGCCCGGGCCCGGGGAAAGUAUUAUGUUACGCCGUUCGGAUCUGCACUU | -0.655
CUGUGCUACACAUCGUAUGUACCGAAUCAAACCCCCCCAAACCCCCCCAAACCCCCCCAAAAAAGUAUUAUGUUACGCCGUUCGGAUCUG | 0.953
UUCCUCAAGUCCUGUGCUACACAUCGUAUGUACCGAAUCGGGCGGCGGCGGAAAGUAUUAUGUUACGCCGUUCGGAUCUGCACUUCCAGC | -0.199
ACCAUGCAGGUGGGCAUCUUUGGGAAGUGGGGCAAGGGGGGGAAAGGGAGGGGGGUAACACUUUGGGAACAGGUGGUCCCAGGUCGUUUC | 1.04
GUGCUACACAUCGUAUGUACCGAAUCGGGGAAAAAAAGGGGUUUUUUUGGGGUUUUUUUGGGGAAAGUAUUAUGUUACGCCGUUCGGAUC | -0.377
CAAGUCCUGUGCUACACAUCGUAUGUACCGAAUCGGGAAAAAAAGGGAGGGAGGGAAAGUAUUAUGUUACGCCGUUCGGAUCUGCACUUC | 0.652
